Assay results collected from several papers.
Parts stem from different laboratories: compare values within a part only. Several values in a cell are separate wells, animals, samples, runs or records.
Sequence of UniProt Q8TF76 (whole entry, looked up): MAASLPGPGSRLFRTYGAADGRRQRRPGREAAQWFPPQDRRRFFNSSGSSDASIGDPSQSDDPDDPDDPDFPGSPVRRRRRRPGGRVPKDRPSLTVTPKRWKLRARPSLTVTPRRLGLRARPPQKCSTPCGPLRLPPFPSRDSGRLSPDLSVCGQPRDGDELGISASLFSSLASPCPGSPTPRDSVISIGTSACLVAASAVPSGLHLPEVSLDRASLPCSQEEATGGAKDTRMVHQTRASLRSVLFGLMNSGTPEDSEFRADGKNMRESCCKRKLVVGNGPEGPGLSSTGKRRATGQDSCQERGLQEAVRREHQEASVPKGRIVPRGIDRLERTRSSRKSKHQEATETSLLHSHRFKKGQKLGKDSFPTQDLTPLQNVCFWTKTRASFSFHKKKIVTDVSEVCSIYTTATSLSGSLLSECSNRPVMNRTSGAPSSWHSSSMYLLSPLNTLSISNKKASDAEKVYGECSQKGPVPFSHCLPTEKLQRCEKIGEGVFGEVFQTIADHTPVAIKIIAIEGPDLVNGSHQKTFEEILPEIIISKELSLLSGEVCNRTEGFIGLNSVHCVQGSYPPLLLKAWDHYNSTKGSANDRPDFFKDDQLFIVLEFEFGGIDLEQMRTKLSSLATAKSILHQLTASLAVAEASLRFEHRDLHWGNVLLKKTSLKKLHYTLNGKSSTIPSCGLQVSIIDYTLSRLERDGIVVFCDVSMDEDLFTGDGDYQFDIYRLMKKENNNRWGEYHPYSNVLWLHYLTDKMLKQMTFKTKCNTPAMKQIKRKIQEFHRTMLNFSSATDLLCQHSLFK
Sequence of UniProt Q00526 (whole entry, looked up): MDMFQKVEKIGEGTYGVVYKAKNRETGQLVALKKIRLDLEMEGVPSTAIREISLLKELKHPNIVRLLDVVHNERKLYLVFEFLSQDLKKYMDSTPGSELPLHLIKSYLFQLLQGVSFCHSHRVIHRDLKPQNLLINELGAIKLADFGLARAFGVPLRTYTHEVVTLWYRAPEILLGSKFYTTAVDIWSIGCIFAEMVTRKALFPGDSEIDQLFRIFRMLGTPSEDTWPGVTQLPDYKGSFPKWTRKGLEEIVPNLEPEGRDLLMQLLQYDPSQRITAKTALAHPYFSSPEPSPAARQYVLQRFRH
Sequence of UniProt O75676 (whole entry, looked up): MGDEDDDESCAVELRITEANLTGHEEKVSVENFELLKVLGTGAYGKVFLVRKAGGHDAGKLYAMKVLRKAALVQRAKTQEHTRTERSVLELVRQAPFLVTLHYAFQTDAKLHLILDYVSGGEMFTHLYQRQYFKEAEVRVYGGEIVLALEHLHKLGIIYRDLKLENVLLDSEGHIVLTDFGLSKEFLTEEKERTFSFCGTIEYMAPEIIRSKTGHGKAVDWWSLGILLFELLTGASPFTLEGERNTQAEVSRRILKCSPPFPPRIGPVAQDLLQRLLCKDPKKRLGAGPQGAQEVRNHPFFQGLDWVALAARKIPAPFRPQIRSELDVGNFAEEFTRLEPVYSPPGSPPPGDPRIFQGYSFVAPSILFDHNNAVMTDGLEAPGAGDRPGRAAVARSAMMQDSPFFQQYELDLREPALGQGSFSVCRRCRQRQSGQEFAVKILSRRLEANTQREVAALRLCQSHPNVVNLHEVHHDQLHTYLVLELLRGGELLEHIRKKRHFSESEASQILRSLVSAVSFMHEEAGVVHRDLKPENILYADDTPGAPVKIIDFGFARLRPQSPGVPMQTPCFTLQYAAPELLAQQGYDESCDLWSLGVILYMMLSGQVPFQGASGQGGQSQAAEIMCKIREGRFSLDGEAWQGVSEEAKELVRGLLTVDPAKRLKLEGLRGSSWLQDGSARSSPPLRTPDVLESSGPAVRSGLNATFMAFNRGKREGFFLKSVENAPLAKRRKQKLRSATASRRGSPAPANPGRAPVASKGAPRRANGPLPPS
Sequence of UniProt Q07912 (whole entry, looked up): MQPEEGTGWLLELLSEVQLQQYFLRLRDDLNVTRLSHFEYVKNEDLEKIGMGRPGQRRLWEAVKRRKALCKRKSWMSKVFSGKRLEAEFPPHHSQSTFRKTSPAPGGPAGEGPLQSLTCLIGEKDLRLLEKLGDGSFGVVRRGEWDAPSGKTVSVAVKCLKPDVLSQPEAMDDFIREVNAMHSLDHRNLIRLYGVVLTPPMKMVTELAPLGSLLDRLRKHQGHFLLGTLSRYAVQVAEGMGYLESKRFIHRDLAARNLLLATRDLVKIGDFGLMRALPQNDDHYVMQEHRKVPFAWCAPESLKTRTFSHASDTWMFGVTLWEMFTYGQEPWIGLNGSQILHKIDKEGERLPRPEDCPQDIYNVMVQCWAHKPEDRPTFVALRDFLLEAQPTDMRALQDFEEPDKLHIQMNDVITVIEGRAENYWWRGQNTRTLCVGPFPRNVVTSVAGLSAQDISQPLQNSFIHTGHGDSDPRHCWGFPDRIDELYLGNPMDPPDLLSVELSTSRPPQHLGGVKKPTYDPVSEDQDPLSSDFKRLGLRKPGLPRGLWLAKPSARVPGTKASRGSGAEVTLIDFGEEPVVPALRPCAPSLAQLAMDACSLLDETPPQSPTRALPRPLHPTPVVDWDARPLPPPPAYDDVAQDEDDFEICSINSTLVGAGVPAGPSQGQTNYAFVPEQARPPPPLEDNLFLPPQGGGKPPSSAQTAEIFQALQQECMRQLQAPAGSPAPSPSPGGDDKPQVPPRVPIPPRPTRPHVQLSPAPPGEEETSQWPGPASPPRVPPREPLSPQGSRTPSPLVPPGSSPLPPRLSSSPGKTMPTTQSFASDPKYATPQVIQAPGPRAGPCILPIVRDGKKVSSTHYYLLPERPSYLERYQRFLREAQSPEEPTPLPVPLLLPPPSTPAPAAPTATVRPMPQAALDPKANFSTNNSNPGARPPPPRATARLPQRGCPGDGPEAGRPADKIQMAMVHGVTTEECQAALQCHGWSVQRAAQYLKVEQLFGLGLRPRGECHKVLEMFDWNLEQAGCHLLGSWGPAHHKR
Sequence of UniProt Q08881 (whole entry, looked up): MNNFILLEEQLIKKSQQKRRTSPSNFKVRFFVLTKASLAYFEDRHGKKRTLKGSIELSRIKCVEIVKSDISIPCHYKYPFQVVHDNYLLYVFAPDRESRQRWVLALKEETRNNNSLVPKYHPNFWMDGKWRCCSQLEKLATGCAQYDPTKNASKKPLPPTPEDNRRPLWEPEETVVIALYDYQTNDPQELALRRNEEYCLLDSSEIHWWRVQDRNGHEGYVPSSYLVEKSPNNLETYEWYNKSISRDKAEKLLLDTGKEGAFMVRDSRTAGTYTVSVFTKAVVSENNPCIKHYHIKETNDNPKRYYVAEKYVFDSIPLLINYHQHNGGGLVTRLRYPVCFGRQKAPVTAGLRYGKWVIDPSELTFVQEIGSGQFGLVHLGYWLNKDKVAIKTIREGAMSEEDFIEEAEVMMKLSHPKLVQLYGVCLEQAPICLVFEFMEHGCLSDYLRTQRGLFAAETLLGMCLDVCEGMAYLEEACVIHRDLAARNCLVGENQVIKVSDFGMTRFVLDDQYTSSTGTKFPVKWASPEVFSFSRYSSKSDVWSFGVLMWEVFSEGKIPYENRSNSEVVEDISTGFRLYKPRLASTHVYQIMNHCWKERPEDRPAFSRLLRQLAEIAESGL

Set 1
SMILES: CC(=O)N[C@@H](Cc1c[nH]c2ccccc12)C(=O)N[C@@H](CCC(=O)C=[N+]=[N-])C(=O)OC(C)C
The remaining compound was 85.7% (mouse, EL4 tumour homogenate; 5 µM, 0.05 h, with: protease inhibitor cocktail).
mouse intestinal homogenate; 5 µM, 0.05 h, with: E64 10 µM — remaining compound: 0.297%.
The remaining compound was 96% (human plasma; 20 µM, 60 min, 37 °C).
For mouse, EL4 tumour homogenate; 5 µM, 0.05 h, with: pepstatin A 1.0 µM: remaining compound read 0.16%.
mouse EL4 tumour homogenate; 5 µM, 0.05 h, no inhibitor — remaining compound: 0.15% and 0.152%.
The remaining compound was 100% (mouse, EL4 tumour homogenate; 5 µM, 0 h, with: pepstatin A 1.0 µM).
The remaining compound was 12.1% (mouse intestinal homogenate; 5 µM, 0.05 h, with: leupeptin 100 µM).
It gave 100% for remaining compound (mouse EL4 tumour homogenate; 5 µM, 0 h, with: E64 10 µM).
For mouse intestinal homogenate; 5 µM, 0.05 h, with: PMSF 1.0 mM: remaining compound read 112%.
The remaining compound was 100% (mouse EL4 tumour homogenate; 5 µM, 0 h, with: dichlorvos 500 µM).

Set 2 — cell line: mouse MPNST tumor cells; technique: high-content immunofluorescence imaging; measured: nuclear SOX9; tested at: 10 µM; time: 12 h; notes: mean of 2 replicates; baseline: DMSO control; direction: higher = more nuclear SOX9
CCOC(=O)C(C)(C)Oc1ccc(Cl)cc1: “nuclear SOX9 intensity” 95 % of DMSO and 93 % of DMSO.
For Clc1ccc2c(c1)CCc1cccnc1C2=C1CCNCC1, “nuclear SOX9 intensity” read 207 % of DMSO.
For Cc1cnc(C(=O)NCCc2ccc(S(=O)(=O)NC(=O)NC3CCCCC3)cc2)cn1, “nuclear SOX9 intensity” read 93.9 % of DMSO.
CCC(C)(C)c1ccc(CC(C)CN2C[C@@H](C)O[C@@H](C)C2)cc1 (some centres unmarked): “nuclear SOX9 intensity” 98.9 % of DMSO.
CC(C)[C@H]1CC[C@H](C(=O)N[C@H](Cc2ccccc2)C(=O)O)CC1: “nuclear SOX9 intensity” 90.3 % of DMSO and 98 % of DMSO and 92.1 % of DMSO.
Under “nuclear SOX9 intensity”, CCCCc1oc2ccccc2c1C(=O)c1cc(I)c(OCCN(CC)CC)c(I)c1 is recorded as 149 % of DMSO.
C[C@@H](CN1CC(=O)NC(=O)C1)N1CC(=O)NC(=O)C1: “nuclear SOX9 intensity” 107 % of DMSO.
Under “nuclear SOX9 intensity”, O=C(c1cc2c(s1)CCCCC2)N1CCC(n2c(=O)[nH]c3ccccc32)CC1 is recorded as 104 % of DMSO.
For CC(C)[C@H](NS(=O)(=O)c1ccc(-c2ccc(Br)cc2)cc1)C(=O)O, “nuclear SOX9 intensity” read 91.7 % of DMSO.
CC(=O)Nc1ccc(NC(=S)NC(=O)c2ccc(C(C)(C)C)cc2)cc1 — result for “nuclear SOX9 intensity”: 106 % of DMSO.
For CC/C(=C(/CC)c1ccc(O)cc1)c1ccc(O)cc1, “nuclear SOX9 intensity” read 124 % of DMSO.
Under “nuclear SOX9 intensity”, Nc1ccc(S(=O)(=O)Nc2nccs2)cc1 is recorded as 101 % of DMSO.
For O=c1cc(N2CCNCC2)oc2c(-c3ccccc3)cccc12, “nuclear SOX9 intensity” read 115 % of DMSO.
Under “nuclear SOX9 intensity”, O=C(Nc1ccccc1)N1CCN(c2nc(-c3ccccc3)ns2)CC1 is recorded as 104 % of DMSO.
For Oc1ccc(C2CNCCc3c2cc(O)c(O)c3Cl)cc1 (centres unmarked), “nuclear SOX9 intensity” read 91.2 % of DMSO.
Under “nuclear SOX9 intensity”, CO[C@@]1(NC(=O)C2SC(=C(C(N)=O)C(=O)O)S2)C(=O)N2C(C(=O)O)=C(CSc3nnnn3C)CS[C@@H]21 (some centres unmarked) is recorded as 130 % of DMSO.

Set 3 — read-out: cell-free assay; technique: competition with immobilised ligand; tested at: 0.1 µM
Compound: Cn1cc(Cl)c2c(Oc3c(F)cc(Nc4cc(Cl)nc(N)n4)cc3F)ccnc21
Serine/threonine-protein kinase 35 (STK35, Homo sapiens, UniProt Q8TDR2) — remaining binding: 99%.
Serine/threonine-protein kinase haspin (HASPIN, Homo sapiens, UniProt Q8TF76) — remaining binding: 74%.
For Muscle, skeletal receptor tyrosine-protein kinase (MUSK, Homo sapiens, UniProt O15146): remaining binding read 100%.
The remaining binding was 75% (Serine/threonine-protein kinase N2 (PKN2, Homo sapiens, UniProt Q16513)).
It gave 97% for remaining binding (Tyrosine-protein kinase ITK/TSK (ITK, Homo sapiens, UniProt Q08881)).
For Activated CDC42 kinase 1 (TNK2, Homo sapiens, UniProt Q07912): remaining binding read 85%.
The remaining binding was 100% (Insulin receptor-related protein (INSRR, Homo sapiens, UniProt P14616)).
The remaining binding was 100% (Cyclin-dependent kinase 3 (CDK3, Homo sapiens, UniProt Q00526)).
It gave 95% for remaining binding (Tyrosine-protein kinase ABL1, phosphorylated (ABL1, Homo sapiens, UniProt P00519, H396P)).
Epidermal growth factor receptor (EGFR, Homo sapiens, UniProt P00533) — remaining binding: 97%.
The remaining binding was 97% (Serine/threonine-protein kinase MAK (MAK, Homo sapiens, UniProt P20794)).
Serine/threonine-protein kinase 4 (STK4, Homo sapiens, UniProt Q13043) — remaining binding: 94%.
It gave 100% for remaining binding (Serine/threonine-protein kinase D3 (PRKD3, Homo sapiens, UniProt O94806)).
The remaining binding was 97% (Insulin-like growth factor 1 receptor (IGF1R, Homo sapiens, UniProt P08069)).
Serine/threonine-protein kinase BRSK1 (BRSK1, Homo sapiens, UniProt Q8TDC3) — remaining binding: 100%.
The remaining binding was 94% (Tyrosine-protein kinase JAK3, JH1 (JAK3, Homo sapiens, UniProt P52333)).
The remaining binding was 96% (Calcium/calmodulin-dependent protein kinase type IV (CAMK4, Homo sapiens, UniProt Q16566)).
The remaining binding was 86% (Mitogen-activated protein kinase kinase kinase kinase 4 (MAP4K4, Homo sapiens, UniProt O95819)).
It gave 100% for remaining binding (Tyrosine-protein kinase receptor UFO (AXL, Homo sapiens, UniProt P30530)).
It gave 100% for remaining binding (Death-associated protein kinase 1 (DAPK1, Homo sapiens, UniProt P53355)).
Dual specificity protein kinase CLK3 (CLK3, Homo sapiens, UniProt P49761) — remaining binding: 91%.
Serine/threonine-protein kinase SIK2 (SIK2, Homo sapiens, UniProt Q9H0K1) — remaining binding: 100%.
Ribosomal protein S6 kinase alpha-4, C-terminal kinase domain (RPS6KA4, Homo sapiens, UniProt O75676) — remaining binding: 100%.
For STE20-like serine/threonine-protein kinase (SLK, Homo sapiens, UniProt Q9H2G2): remaining binding read 98%.
Cyclin-dependent kinase 8 (CDK8, Homo sapiens, UniProt P49336) — remaining binding: 97%.

Set 4 — read-out: enzyme activity; action: inhibitor; tested at: 0.5 µM; baseline: control
Target: Platelet-derived growth factor receptor beta (PDGFRB, Homo sapiens, UniProt P09619)
Sequence of UniProt P09619 (whole entry, looked up): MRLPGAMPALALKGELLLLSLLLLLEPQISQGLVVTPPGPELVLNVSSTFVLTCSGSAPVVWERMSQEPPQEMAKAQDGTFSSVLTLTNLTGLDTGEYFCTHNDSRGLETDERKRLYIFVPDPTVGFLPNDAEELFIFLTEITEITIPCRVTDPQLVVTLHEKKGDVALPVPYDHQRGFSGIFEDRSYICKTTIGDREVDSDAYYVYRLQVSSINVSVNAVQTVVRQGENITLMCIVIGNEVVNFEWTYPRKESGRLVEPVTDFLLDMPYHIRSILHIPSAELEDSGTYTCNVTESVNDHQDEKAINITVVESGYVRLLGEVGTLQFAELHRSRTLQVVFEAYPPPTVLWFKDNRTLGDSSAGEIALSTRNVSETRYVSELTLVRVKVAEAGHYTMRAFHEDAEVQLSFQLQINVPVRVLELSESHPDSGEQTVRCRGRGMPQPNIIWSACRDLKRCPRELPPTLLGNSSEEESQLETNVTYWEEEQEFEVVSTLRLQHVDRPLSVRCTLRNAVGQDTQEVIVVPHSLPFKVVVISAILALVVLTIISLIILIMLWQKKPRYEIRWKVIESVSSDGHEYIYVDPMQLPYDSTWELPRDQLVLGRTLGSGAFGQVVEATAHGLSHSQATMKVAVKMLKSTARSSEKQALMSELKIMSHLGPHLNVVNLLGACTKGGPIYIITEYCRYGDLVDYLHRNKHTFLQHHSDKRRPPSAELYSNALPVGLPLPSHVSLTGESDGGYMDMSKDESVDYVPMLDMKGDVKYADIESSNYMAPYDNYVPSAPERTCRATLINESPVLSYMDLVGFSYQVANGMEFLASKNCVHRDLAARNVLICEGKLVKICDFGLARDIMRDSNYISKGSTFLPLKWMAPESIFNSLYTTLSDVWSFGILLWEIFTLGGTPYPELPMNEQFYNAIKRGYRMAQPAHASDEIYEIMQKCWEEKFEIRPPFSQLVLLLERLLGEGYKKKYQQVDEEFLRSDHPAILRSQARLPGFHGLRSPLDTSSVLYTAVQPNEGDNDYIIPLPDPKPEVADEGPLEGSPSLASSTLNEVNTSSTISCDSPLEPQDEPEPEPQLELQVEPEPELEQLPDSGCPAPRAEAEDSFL
For COc1cc2ncnc(Nc3ccc(OCc4ccccc4)cc3)c2cc1OC, the remaining activity was 93%.
Cn1cc(/C=C2\C(=O)Nc3ccc(S(N)(=O)=O)cc32)c2ccccc21 has a remaining activity of 66%.
The remaining activity of COc1ccc(-c2cnc3c(-c4ccsc4)cnn3c2)cc1 is reported as 63.4%.
With O=C1NC(=O)/C(=C/c2ccc3nccnc3c2)S1 the remaining activity was 99.5%.
For COc1cc2ncc(-c3ccccc3)nc2cc1OC, the remaining activity was 87.5%.
With CN(C)CCCn1cc(C2=C(c3c[nH]c4ccccc34)C(=O)NC2=O)c2ccccc21 the remaining activity was 78.1%.
The remaining activity of Cc1nc(Nc2ncc(C(=O)Nc3c(C)cccc3Cl)s2)cc(N2CCN(CCO)CC2)n1 is reported as 2.48%.
For O=C(Nc1ccc(Cl)cc1)c1ccccc1NCc1ccncc1, the remaining activity was 45%.
With Cn1cnc2cc3c(Nc4cccc(Br)c4)ncnc3cc21 the remaining activity was 99.7%.
The remaining activity of CC(C)[C@H](CO)Nc1nc(Nc2cccc(Cl)c2)c2ncn(C(C)C)c2n1 is reported as 106%.
CCN1/C(=C/C(C)=O)Sc2ccc(OC)cc21 gave a remaining activity of 107%.
The remaining activity of Nc1[nH]nc2nnc(-c3c(-c4ccccc4)nn4ccccc34)cc12 is reported as 114%.
C[S+]([O-])c1ccc(-c2nc(-c3ccncc3)c(-c3ccc(F)cc3)[nH]2)cc1 (centres unmarked) has a remaining activity of 103%.
CC(C)c1nn(-c2c(Cl)cccc2Cl)c2nc(Cc3ccc(OCCO)cc3)[nH]c(=O)c12 has a remaining activity of 98.9%.
For CS(=O)(=O)CCNCc1ccc(-c2ccc3ncnc(Nc4ccc(OCc5cccc(F)c5)c(Cl)c4)c3c2)o1, the remaining activity was 92%.
CCOc1cc2ncnc(Nc3cccc(Br)c3)c2cc1OCC has a remaining activity of 94.8%.
With COc1ccc(Cl)cc1NC(=O)Nc1cc(C)nc2ccccc12 the remaining activity was 105%.
For CC(=O)O/N=C1/C(c2c(O)[nH]c3cc(Br)ccc23)=Nc2ccccc21, the remaining activity was 51.6%.
O=c1cc(N2CCOCC2)oc2c1ccc1ccccc12 gave a remaining activity of 111%.
CCC(=O)Nc1ccc2ncnc(Nc3cccc(Br)c3)c2c1 gave a remaining activity of 98%.

A few entries again (set 3):
It gave 100% for remaining binding (Tyrosine-protein kinase receptor UFO (AXL, Homo sapiens, UniProt P30530)).
For Activated CDC42 kinase 1 (TNK2, Homo sapiens, UniProt Q07912): remaining binding read 85%.
It gave 97% for remaining binding (Tyrosine-protein kinase ITK/TSK (ITK, Homo sapiens, UniProt Q08881)).
Ribosomal protein S6 kinase alpha-4, C-terminal kinase domain (RPS6KA4, Homo sapiens, UniProt O75676) — remaining binding: 100%.
Epidermal growth factor receptor (EGFR, Homo sapiens, UniProt P00533) — remaining binding: 97%.
